# Results gathered from unrelated publications.
# Values joined by “and” are separate records of one study, mostly repeats; a detail may differ. Numbers after ± are the reported error.
# U2AF2: U2AF2 148-342 (Homo sapiens, UniProt P26368)
# Chain of UniProt P26368 (whole entry, looked up): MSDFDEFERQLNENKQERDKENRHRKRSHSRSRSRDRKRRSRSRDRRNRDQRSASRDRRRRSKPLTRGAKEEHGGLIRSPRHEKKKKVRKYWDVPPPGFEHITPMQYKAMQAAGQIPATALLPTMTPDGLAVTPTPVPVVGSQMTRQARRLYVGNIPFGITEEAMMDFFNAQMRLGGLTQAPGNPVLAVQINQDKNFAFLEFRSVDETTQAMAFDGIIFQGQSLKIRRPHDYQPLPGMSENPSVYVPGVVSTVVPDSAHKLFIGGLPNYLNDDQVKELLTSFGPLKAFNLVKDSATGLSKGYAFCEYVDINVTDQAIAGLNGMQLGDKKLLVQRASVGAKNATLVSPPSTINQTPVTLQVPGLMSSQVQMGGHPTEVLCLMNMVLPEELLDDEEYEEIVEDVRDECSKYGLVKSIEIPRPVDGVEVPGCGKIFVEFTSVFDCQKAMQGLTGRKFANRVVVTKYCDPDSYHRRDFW
# B1: human septin-7; sequence looked up; chain SVSARSAAAEERSVNSSTMVAQQKNLEGYVGFANLPNQVYRKSVKRGFEFTLMVVGESGLGKSTLINSLFLTDLYSPEYPGPSHRIKKTVQVEQSKVLIKEGGVQLLLTIVDTPGFGDAVDNSNCWQPVIDYIDSKFEDYLNAESRVNRRQMPDNRVQCCLYFIAPSGHGLKPLDIEFMKRLHEKVNIIPLIAKADTLTPEECQQFKKQIMKEIQEHKIKIYEFPETDDEEENKLVKKIKDRLPLAVVGSNTIIEVNGKRVRGRQYPWGVAEVENGEHCDFTILRNMLIRTHMQDLKDVTNNVHYENYRSRKLAAVTYNGVDNNKNKGQLTKSPLAQMEEERREHVAKMKKMEMEMEQVFEMKVKEKVQKLKDSEAELQRRHEQMKKNLEAQHKELEEKRRQFEDEKANWEAQQRILEQQNSSRTLEKNKKKGKIF
# B2: human hnRNP F; sequence looked up; chain MMLGPEGGEGFVVKLRGLPWSCSVEDVQNFLSDCTIHDGAAGVHFIYTREGRQSGEAFVELGSEDDVKMALKKDRESMGHRYIEVFKSHRTEMDWVLKHSGPNSADSANDGFVRLRGLPFGCTKEEIVQFFSGLEIVPNGITLPVDPEGKITGEAFVQFASQELAEKALGKHKERIGHRYIEVFKSSQEEVRSYSDPPLKFMSVQRPGPYDRPGTARRYIGIVKQAGLERMRPGAYSTGYGGYEEYSGLSDGYGFTTDLFGRDLSYCLSGMYDHRYGDSEFTVQSTTGHCVHMRGLPYKATENDIYNFFSPLNPVRVHIEIGPDGRVTGEADVEFATHEEAVAAMSKDRANMQHRYIELFLNSTTGASNGAYSSQVMQGMGVSAAQATYSGLESQSVSGCYGAGYSGQNSMGGYD
# B3: human eRF3b; sequence looked up; chain MDSGSSSSDSAPDCWDQVDMESPGSAPSGDGVSSAVAEAQREPLSSAFSRKLNVNAKPFVPNVHAAEFVPSFLRGPTQPPTLPAGSGSNDETCTGAGYPQGKRMGRGAPVEPSREEPLVSLEGSNSAVTMELSEPVVENGEVEMALEESWEHSKEVSEAEPGGGSSGDSGPPEESGQEMMEEKEEIRKSKSVIVPSGAPKKEHVNVVFIGHVDAGKSTIGGQIMFLTGMVDKRTLEKYEREAKEKNRETWYLSWALDTNQEERDKGKTVEVGRAYFETERKHFTILDAPGHKSFVPNMIGGASQADLAVLVISARKGEFETGFEKGGQTREHAMLAKTAGVKHLIVLINKMDDPTVNWSIERYEECKEKLVPFLKKVGFSPKKDIHFMPCSGLTGANIKEQSDFCPWYTGLPFIPYLDNLPNFNRSIDGPIRLPIVDKYKDMGTVVLGKLESGSIFKGQQLVMMPNKHNVEVLGILSDDTETDFVAPGENLKIRLKGIEEEEILPGFILCDPSNLCHSGRTFDVQIVIIEHKSIICPGYNAVLHIHTCIEEVEITALISLVDKKSGEKSKTRPRFVKQDQVCIARLRTAGTICLETFKDFPQMGRFTLRDEGKTIAIGKVLKLVPEKD
# B4: human RNA helicase DHX15; sequence looked up; chain MSKRHRLDLGEDYPSGKKRAGTDGKDRDRDRDREDRSKDRDRERDRGDREREREKEKEKELRASTNAMLISAGLPPLKASHSAHSTHSAHSTHSTHSAHSTHAGHAGHTSLPQCINPFTNLPHTPRYYDILKKRLQLPVWEYKDRFTDILVRHQSFVLVGETGSGKTTQIPQWCVEYMRSLPGPKRGVACTQPRRVAAMSVAQRVADEMDVMLGQEVGYSIRFEDCSSAKTILKYMTDGMLLREAMNDPLLERYGVIILDEAHERTLATDILMGVLKEVVRQRSDLKVIVMSATLDAGKFQIYFDNCPLLTIPGRTHPVEIFYTPEPERDYLEAAIRTVIQIHMCEEEEGDLLLFLTGQEEIDEACKRIKREVDDLGPEVGDIKIIPLYSTLPPQQQQRIFEPPPPKKQNGAIGRKVVVSTNIAETSLTIDGVVFVIDPGFAKQKVYNPRIRVESLLVTAISKASAQQRAGRAGRTRPGKCFRLYTEKAYKTEMQDNTYPEILRSNLGSVVLQLKKLGIDDLVHFDFMDPPAPETLMRALELLNYLAALNDDGDLTELGSMMAEFPLDPQLAKMVIASCDYNCSNEVLSITAMLSVPQCFVRPTEAKKAADEAKMRFAHIDGDHLTLLNVYHAFKQNHESVQWCYDNFINYRSLMSADNVRQQLSRIMDRFNLPRRSTDFTSRDYYINIRKALVTGYFMQVAHLERTGHYLTVKDNQVVQLHPSTVLDHKPEWVLYNEFVLTTKNYIRTCTDIKPEWLVKIAPQYYDMSNFPQCEAKRQLDRIIAKLQSKEYSQY
# Chain of UniProt P13393 (whole entry, looked up): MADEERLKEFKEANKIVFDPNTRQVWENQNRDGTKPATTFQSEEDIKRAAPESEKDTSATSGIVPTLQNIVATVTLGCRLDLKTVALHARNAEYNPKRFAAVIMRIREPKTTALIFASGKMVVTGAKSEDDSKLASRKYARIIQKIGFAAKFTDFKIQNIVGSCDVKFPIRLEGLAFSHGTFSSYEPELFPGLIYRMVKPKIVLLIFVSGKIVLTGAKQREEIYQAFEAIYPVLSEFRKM
Molecule,target,test,test system,setting,scale,endpoint,value
B1 (human septin-7),PP6C (human),"co-immunoprecipitation, IP-MS",CYB5R4 knockout cells,concentration not given,baseline: CYB5R4 knockout over parental,log2 fold change,-1.25
TTFFDYDYGA,CCL7 (human),"binding, nano-ESI mass spectrometry",peptide,"10 µM, pH 6.8",,association constant,10000 M⁻¹
AACAAGTACAACACACTCTCAAATAATTATGCGCTTCAAGTCAATCGGTCC (dsDNA; 5'-amino-C6 primer),"SPT15 full length assumed (Saccharomyces cerevisiae, UniProt P13393)",array,"double-stranded DNA, one strand shown",TBP alone,,Kd,6.89 ± 1.28 nM
GSGAGKESYV,"construct, MBP fusion, human SCRIB, PDZ 3-4",automated holdup,"peptide, purified PDZ protein","concentration not given, unit not given","baseline: biotin control resin, higher = stronger binding",binding intensity,0.132
B2 (human hnRNP F),PP6C (human),"co-immunoprecipitation, IP-MS",CYB5R4 knockout cells,concentration not given,baseline: CYB5R4 knockout over parental,log2 fold change,-0.6
KDECVIATEV,"construct, MBP fusion, human SCRIB, PDZ 3-4",surface plasmon resonance,peptide,concentration not given,higher = stronger binding,normalised SPR binding response,35.9 normalised RU
B3 (human eRF3b),PP6C (human),"co-immunoprecipitation, IP-MS",CYB5R4 knockout cells,concentration not given,baseline: CYB5R4 knockout over parental,log2 fold change,0.0855
VVVGAVGVGK,HLA-A*11:01 peptide-β2M single-chain trimer,"western blot, item: pMHC-I","peptide, 293T cells","48 h, unit not given, with: 100 µg/mL cycloheximide",baseline: time zero,remaining protein,0.835 and 0.814 and 0.818
Peginesatide,ERK1 (MAPK3) human,"LC-MS/MS phosphoproteomics, item: ERK1 phosphotyrosine site 204",UT7/EPO,"10 nM, 15 min, with: EPO 10 U/mL",baseline: vehicle,phosphorylation fold change,34.9 fold
GSGAGQITKV,"construct, MBP fusion, human SCRIB, PDZ 3-4",automated holdup,"peptide, crude extract","concentration not given, corrected by standard peak, unit not given","baseline: biotin control resin, higher = stronger binding",binding intensity,0.0282
levan,F protein (Phormia regina),"binding, affinity electrophoresis",,,,dissociation constant,0.83%
GUUUUUGUU (ssRNA),U2AF2,sequencing of bound RNA,RNA,motif only,,Kd,710 nM
QSARYRDTEL,"construct, MBP fusion, human SCRIB, PDZ 3-4",automated holdup,"peptide, crude extract","concentration not given, uncorrected, unit not given","baseline: biotin control resin, higher = stronger binding",binding intensity,0.473
AUUUUUAUC (ssRNA),U2AF2,sequencing of bound RNA,RNA,motif only,,Kd,880 nM
cytidine monophosphate,adenosine A2A receptor thermostabilised,equilibrium dialysis LC-MS,,concentration not given,baseline: no protein,log2 fold change,-0.222
human hornerin,PP6C (human),"co-immunoprecipitation, IP-MS",CYB5R4 knockout cells,concentration not given,baseline: CYB5R4 knockout over parental,log2 fold change,-0.46
GEMVGQARILAQATSDLVNAIKDA,vinculin head domain Vd1,"complex rupture, AFM single-molecule force spectroscopy",peptide,"single traces, N-terminal pulling, 800 nm/s",,mean rupture force,48.2 pN
B4 (human RNA helicase DHX15),PP6C (human),"co-immunoprecipitation, IP-MS",CYB5R4 knockout cells,concentration not given,baseline: CYB5R4 knockout over parental,log2 fold change,-0.82
EKPIDSETKM,"construct, MBP fusion, human SCRIB, PDZ 3-4",surface plasmon resonance,peptide,concentration not given,higher = stronger binding,normalised SPR binding response,0 normalised RU
human G6PD,PP6C (human),"co-immunoprecipitation, IP-MS",CYB5R4 knockout cells,concentration not given,baseline: CYB5R4 knockout over parental,log2 fold change,-0.12
VVVGACGVGK,HLA-A*11:01 peptide-β2M single-chain trimer,"western blot, item: pMHC-I","peptide, 293T cells","18 h, unit not given, with: 100 µg/mL cycloheximide",baseline: time zero,remaining protein,0.798 and 0.807 and 0.803

# Excerpt of the above:
Molecule,target,test,test system,setting,scale,endpoint,value
GUUUUUGUU (ssRNA),U2AF2,sequencing of bound RNA,RNA,motif only,,Kd,710 nM
